Experimental data pooled from the literature.
Compare with care: the assays were run in different laboratories. Numbers after ± are the reported error. Values after ≈ are worked out from the molar mass of the structure shown.

Compound	assay	test system	conditions	how to read	measurement	value
c1ccc2c(c1)Cc1ccccc1-2		developing zebrafish, liver			hepatic clearance	84.7 mL/min/kg
C=C(C)[C@@H]1CCC(C)=C[C@H]1c1c(O)cc(CCCCC)cc1O		human	750 mg, trial 17075, added: fluconazole 400 mg		subjects with Headache	0%
C[C@]12CC[C@H]3[C@@H](CCC4=CC(=O)CC[C@@]43C)[C@@H]1CC[C@@H]2O		human liver microsomes	1 µM		hepatic clearance	15.5 mL/min/kg
CCCCOc1nc(N)c2c(n1)N(Cc1cccc(CN3CCCC3)c1)CC(=O)N2		human	oral, 2 mg		TEAE leading to discontinuation	0%
CN1C(=O)CN=C(c2ccccc2)c2cc(Cl)ccc21	empty perfusion, no placenta	maternal circuit tubing	5 µM, 360 min	relative to: initial amount	loss by adsorption	44.4 ± 5.6%
Cc1ncc2n1-c1ccc(Cl)cc1C(c1ccccc1F)=NC2		human	oral, dose not given		subjects with TEAE leading to death	0%
Cc1ccc(-c2nc3ccc(C)cn3c2CC(=O)N(C)C)cc1		human, human liver microsomes 0.5 mg/mL	5 µM, 24 h, pH 7.4		fu plasma over fu microsomes	0.147
O=C(C1CCCCC1)N1CCN(S(=O)(=O)c2cccc3cnccc23)CC1		human liver microsomes	5 µM, added: NADPH		CLint	642 µL/min/mg
COC[C@@H](NC(C)=O)C(=O)NCc1ccccc1		healthy male volunteers, plasma	oral, 100 mg single dose		elimination rate constant (mean)	0.058 h⁻¹
CC[C@H](C)[C@H](NC(=O)[C@H](CC(C)C)NC(=O)[C@H](CO)NC(=O)[C@H](CC(C)C)NC(=O)[C@H](CC(C)C)NC(=O)[C@@H](N)CO)C(=O)N[C@@H](CCCNC(=N)N)C(=O)N[C@@H](CCCCN)C(=O)N[C@@H](CC(C)C)C(=O)N[C@H](C(=O)N[C@H](C(N)=O)[C@@H](C)O)[C@@H](C)CC		mouse red blood cells			minimal haemolytic concentration	10 µM
OCc1ncc2n1-c1ccc(Cl)cc1C(c1ccccc1F)=NC2		human, plasma	oral, 7.5 mg of midazolam, day 1, geometric mean, no amenamevir		Cmax	15.7 ng/mL
C[C@@H](c1ncncc1F)[C@](O)(Cn1cncn1)c1ccc(F)cc1F		human	oral, 200 mg		TEAE leading to discontinuation	0%
CCN(CC)C(=O)[C@@H]1C=C2c3cccc4[nH]cc(c34)C[C@H]2N(C)C1	refers to: not feeling at ease	healthy volunteers	dose not given, 12 to 24 h	relative to: placebo, direction not given	List of Complaints score	0
O=C(O)c1cn(Cc2cccc(Cl)c2)c2ccccc12		F344 rat, male, serum	oral, 150 mg/kg/day, 2 days, group mean		gamma-glutamyl transferase	0 U/L
CCCCCn1nc(C(=O)Nc2cccc3ccccc23)c2ccccc21		male human liver microsomes	1 µM		hepatic clearance	19.2 mL/min/kg
C#Cc1ccc2c(c1)C(c1ccccn1)=NCc1c(-c3cnco3)ncn1-2	thermodynamic equilibrium, UV	isopropanol	24 h, 25 °C		solubility	3260 µg/mL (≈ 9.28 mM)
COc1cc2c(Oc3ccc4[nH]c(C)cc4c3F)ccnc2cc1OCC1(N)CC1	refers to: grade 1 or 2 influenza-like symptoms	paediatric high-risk refractory sarcoma	whole group		incidence of adverse event	8.8%
CCCCCCCCCCC(=O)O[C@H]1CC[C@H]2[C@@H]3CCC4=CC(=O)CC[C@]4(C)[C@H]3CC[C@]12C		human male serum	500 ng/mL, NaF 100 mg/mL, baseline testosterone 544 ng/dL		testosterone level	540 ng/dL
CCCCCn1cc(C(=O)Nc2cccc3ccccc23)c2ccccc21		Sprague-Dawley rat liver microsomes	1 µM		hepatic clearance	50.3 mL/min/kg
CC(C)N(CCc1c[nH]c2cccc(O)c12)C(C)C		male cynomolgus monkey, plasma	intravenous, 1 mg/kg		half-life	37.8 min
O=C1c2c(O)c(=O)ccn2N([C@@H]2c3ccccc3SCc3c2ccc(F)c3F)[C@@H]2COCCN12		BALB/c mice, plasma	oral, 1.5 mg/kg baloxavir marboxil, 2 h		plasma concentration	8.38 ng/mL
OCc1ncc2n1-c1ccc(Cl)cc1C(c1ccccc1F)=NC2		humans, plasma	3 mg of midazolam, added: isavuconazole		AUC(0-last)	17.5 ng·h/mL
Cc1ncc2n1-c1ccc(Cl)cc1C(c1ccccc1F)=NC2		EpiIntestinal microtissues	10 µM, pH 6.5		CLint	0.28 µL/min/mg
COc1ccc2c(c1)[C@]13CCCC[C@@H]1[C@H](C2)N(C)CC3		human	oral, dose not given		subjects with treatment-related TEAE	17.9%
CCCCCCC#Cc1cncc(-c2nnc(SCc3cc([N+](=O)[O-])cc([N+](=O)[O-])c3)n2C)c1		human liver microsomes			CLint	357 µL/min/mg

Repeated from above:
Compound	assay	test system	conditions	how to read	measurement	value
C[C@]12CC[C@H]3[C@@H](CCC4=CC(=O)CC[C@@]43C)[C@@H]1CC[C@@H]2O		human liver microsomes	1 µM		hepatic clearance	15.5 mL/min/kg
CCCCOc1nc(N)c2c(n1)N(Cc1cccc(CN3CCCC3)c1)CC(=O)N2		human	oral, 2 mg		TEAE leading to discontinuation	0%
CCCCCCCCCCC(=O)O[C@H]1CC[C@H]2[C@@H]3CCC4=CC(=O)CC[C@]4(C)[C@H]3CC[C@]12C		human male serum	500 ng/mL, NaF 100 mg/mL, baseline testosterone 544 ng/dL		testosterone level	540 ng/dL
